Measurements pooled from the literature.
A part holds a random share of what one study measured. Changes are numbered by the printed parent chain.

Block 1
Target: ABI1, truncated, D143A, DHFR fusion (Arabidopsis thaliana)
Method: DHFR PCA, deep sequencing
Sample: yeast
Setting: methotrexate growth selection, single substitutions
Together with: (+)-ABA 4.8 µM
Relative to: wild-type fitted maximum
Reading: higher = stronger binding
Endpoint: relative binding score
Starting sequence: PYL1, truncated, DHFR fusion (Arabidopsis thaliana); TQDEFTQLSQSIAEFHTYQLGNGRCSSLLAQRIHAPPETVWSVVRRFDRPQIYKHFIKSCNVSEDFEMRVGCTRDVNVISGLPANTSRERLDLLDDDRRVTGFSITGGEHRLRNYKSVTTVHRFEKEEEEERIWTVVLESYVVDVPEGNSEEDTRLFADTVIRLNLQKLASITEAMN
G21R: 71.2%
Q7H: 70%
S9A: 79.5%
S26A: 65.4%
E130F: 57.7%
L29S: 12.5%
L166W: -17.6%
L112S: -6.76%
C72M: 69.6%
N85Q: 85%
H55A: 89.7%

Block 2
Target: RNA binding protein fox-1 homolog 2, RRM domain, GST-SBP tag (RBFOX2, Homo sapiens, UniProt O43251-10, residues 100-194)
Method: RNA Bind-n-Seq
Molecule type: RNA
Sample: in vitro
Tested at: 365 nM
Setting: natural RNA segment, single round, ends assumed
Relative to: no-protein control
Reading: higher = stronger binding
Endpoint: RBNS enrichment (R)
Shared flanks, not repeated: GGGAGUUCUACAGUCCGACGAUC … UGGAAUUCUCGGGUGCCAA
Target sequence (chain): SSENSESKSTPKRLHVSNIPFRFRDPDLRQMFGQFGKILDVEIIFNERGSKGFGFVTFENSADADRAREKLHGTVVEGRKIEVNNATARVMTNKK
GCCAUAGUUUUGACUCAGCCCCAUGCAUCCUUUCCCUCUUUCCUGAAAACAACUAAUUUAAAUUUGCUUUGUUUUCUUUUUUAAGUUGAAUUGACGUUAAUGUGUUUUCA: 1.41
GGUCUGAGUCUUCUGGAGCUGUGUAGUUAAUCUUCGGUUUCUGAUAACCCCUGGGUCCAUCUGGCCAUCAGCCUCAGCAGUGAGCAAAGCAAUACCAUACUCAUUUCUAU: 0.289
CGCUCUGCGGCUCCUCCCACCUCCAUCUUCUCCUAUCAUCGGGCUUAUUAUCCUCUCUCUUGGCUUCUCUCUUUCUGAUAUCAGUUCCUGAAGCCUCUCACUAACCCCUA: 0.722
UGCUGAUCACCCUCCUCCCAAAAAGCAAGAGCUUGUUUAUGGCUGAGGAAUCGGCGGAUUGUCUGAAUGACACAUAUACAGAGCCCCCACGGAUUUCUGCACACUCUGGG: 0.253
AGAAAUAAUGCAUUUCUGUGGAUACAGUGCCCACCGCCCUCCUCCACUUGGAAACGGUAUCCUCCCUGCCCAUCCGUCUGUCUGUCGCCCUUCUCCCGGCCCUCACUAAG: 0.58
GACUGCAUUGUUUUCUAGCCCCGAGGUGGUGGCACGGGCCCUCCCUCCCAGCGCUCUGGGAGCCACGCCUAUGCCCUGCCCUUCCUCAGGGCCCCUGGGGAUCUUGCCCC: 0.273
ACCAAACUCAGUCACUCCACCUCAGUCAUGACCUGAUAUAAAAGCCGUGCUAGUUUCCCGAGUUCAGACUCUCAGCUUUGGUUUGGUUUUGGUUUUGGUUUUUUGUUCUU: 0.471
UGCUCUUGCACCAAGUGCCUUCUGCAUCCCUCAGUCCAUCCGCGUACCAGUAGCCUCCCGUCCUAAUUCUGUUCAAUAUCAGUUGUUCCUAAUAAGUAGAAUACACUACU: 1.98
UGUCAGUGGAAACCCCACUUCUGCCCGGCCCUUGAGCUUCUUGCCCACUGUCUCCCCAUCCUUCCACCUACUUGUGGCGAUCUGAGUACUCUACUCUUGCUCAAGAAGUA: 0.526
CCUCGUAGAGGAGGUAUACGUGGCUGCCUUAGUAUUCUGUUCCUCAUGAUUAUUUUAGAAACUGGAUUUUAAAAAGUCUUUUAGAGUUUCACAACAAGGAGAAGCCACAG: 0.405
AUCCUUAGUAUGGUGGAAAGAUUUGUACCCUGACCCGCUCGAGUGGUGGUAGAUGUAUGUAAAUUAGAAGUUUGAAUGGGACAGGAUGAGAGUUCGAGGCUCUUUGUUUG: 4.43
CCUCCCUGCCUGUUCCUGCCUCCUGCACCCUCCCCAGCACCUGCCACACUGACUAUGUCUUUAGGAUUUUAAGUUUAAGUUGUAGCUGCAGAUGGGGGCCUGUGGCUCCC: 1.11

Block 3
Target: CCNA1, cyclin fold, Cln2 fusion (human)
Method: yeast growth competition, sequencing
Sample: yeast
Setting: weak parent motif
Relative to: not given
Reading: higher = stronger binding
Endpoint: normalised enrichment score
Starting sequence: SCAPER docking peptide (human); SNARRSLNFGGST
SNARRSLNFGAST [G11A]: 0.751
SNARRSLNFGDST [G11D]: 0.839
SNARCSLNFGGST [R5C]: 0.0653
SNARRSLNCGGST [F9C]: 0.0893
SNARRSLNFGGSP [T13P]: 0.735
SNAFRSLNFGGST [R4F]: -0.0121
SNARRSLNMGGST [F9M]: 0.622
SNARRSLPFGGST [N8P]: 0.252
MNARRSLNFGGST [S1M]: 0.613
SNARRSLNQGGST [F9Q]: 0.337
SNARRSLNFGGVT [S12V]: 0.353
SNARRSHNFGGST [L7H]: 0.384
SNARRSLNHGGST [F9H]: 0.129
SNARRSLNFGGSH [T13H]: 0.544

Mixed results
PhoQ, residues 284 288 289 292 302 303 MLMVEA — fold induction (PhoP, residues 12 14 15 18 19 LHHSG (Escherichia coli, UniProt P23836); Sort-seq, measured: YFP reporter; E. coli; PhoQ-PhoP variant library, together with: 10 µM Mg2+; relative to: high Mg2+ state, higher = stronger signaling): 1.02

For quick reference, copied from above (block 3):
SNARRSLPFGGST [N8P]: 0.252
MNARRSLNFGGST [S1M]: 0.613
SNARRSLNQGGST [F9Q]: 0.337
SNARRSLNFGGVT [S12V]: 0.353
